{"data": "Published values collected from several papers", "alkB full length assumed": "alkB full length assumed (Escherichia coli, UniProt P05050)", "note": "Each line is one published result; not all experiments were run side by side. ± gives the spread as reported.", "UniProt P05050, sequence (whole entry, looked up)": "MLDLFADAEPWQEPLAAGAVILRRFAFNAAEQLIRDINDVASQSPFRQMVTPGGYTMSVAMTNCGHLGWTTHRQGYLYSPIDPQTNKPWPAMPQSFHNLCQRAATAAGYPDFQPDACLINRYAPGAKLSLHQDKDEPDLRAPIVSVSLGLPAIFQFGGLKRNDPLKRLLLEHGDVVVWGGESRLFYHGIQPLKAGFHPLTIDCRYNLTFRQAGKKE", "UniProt P19466, sequence (whole entry, unmodified, looked up)": "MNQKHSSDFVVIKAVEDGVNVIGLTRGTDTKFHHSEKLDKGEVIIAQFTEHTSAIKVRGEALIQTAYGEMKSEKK", "UniProt Q13569, sequence (whole entry, looked up)": "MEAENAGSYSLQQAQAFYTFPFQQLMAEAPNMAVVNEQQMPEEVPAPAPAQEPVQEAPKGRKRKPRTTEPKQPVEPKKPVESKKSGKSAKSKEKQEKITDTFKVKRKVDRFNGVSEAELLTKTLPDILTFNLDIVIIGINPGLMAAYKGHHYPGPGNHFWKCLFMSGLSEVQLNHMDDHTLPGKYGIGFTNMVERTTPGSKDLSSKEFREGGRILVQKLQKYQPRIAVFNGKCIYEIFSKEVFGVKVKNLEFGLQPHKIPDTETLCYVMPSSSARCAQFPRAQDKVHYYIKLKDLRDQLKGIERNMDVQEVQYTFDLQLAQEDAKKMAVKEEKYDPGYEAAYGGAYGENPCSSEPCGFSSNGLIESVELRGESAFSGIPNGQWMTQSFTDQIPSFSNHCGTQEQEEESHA", "UniProt Q8LE43, sequence (whole entry, looked up)": "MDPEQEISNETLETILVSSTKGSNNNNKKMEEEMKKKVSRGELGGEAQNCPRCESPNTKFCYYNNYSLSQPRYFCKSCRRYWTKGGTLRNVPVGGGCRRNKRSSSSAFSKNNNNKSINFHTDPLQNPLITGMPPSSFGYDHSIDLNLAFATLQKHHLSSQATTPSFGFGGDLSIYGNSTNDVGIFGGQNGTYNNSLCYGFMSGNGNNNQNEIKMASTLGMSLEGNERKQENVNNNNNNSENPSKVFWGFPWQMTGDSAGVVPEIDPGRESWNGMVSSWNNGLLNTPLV", "UniProt Q6R0C4, sequence (whole entry, looked up)": "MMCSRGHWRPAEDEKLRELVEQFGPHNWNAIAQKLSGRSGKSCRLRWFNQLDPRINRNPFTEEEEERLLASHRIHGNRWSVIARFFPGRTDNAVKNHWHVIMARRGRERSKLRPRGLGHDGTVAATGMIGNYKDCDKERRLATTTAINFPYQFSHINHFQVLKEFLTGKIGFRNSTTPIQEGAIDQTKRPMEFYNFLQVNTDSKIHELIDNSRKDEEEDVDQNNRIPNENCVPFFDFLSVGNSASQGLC", "UniProt P33748, sequence (whole entry, looked up)": "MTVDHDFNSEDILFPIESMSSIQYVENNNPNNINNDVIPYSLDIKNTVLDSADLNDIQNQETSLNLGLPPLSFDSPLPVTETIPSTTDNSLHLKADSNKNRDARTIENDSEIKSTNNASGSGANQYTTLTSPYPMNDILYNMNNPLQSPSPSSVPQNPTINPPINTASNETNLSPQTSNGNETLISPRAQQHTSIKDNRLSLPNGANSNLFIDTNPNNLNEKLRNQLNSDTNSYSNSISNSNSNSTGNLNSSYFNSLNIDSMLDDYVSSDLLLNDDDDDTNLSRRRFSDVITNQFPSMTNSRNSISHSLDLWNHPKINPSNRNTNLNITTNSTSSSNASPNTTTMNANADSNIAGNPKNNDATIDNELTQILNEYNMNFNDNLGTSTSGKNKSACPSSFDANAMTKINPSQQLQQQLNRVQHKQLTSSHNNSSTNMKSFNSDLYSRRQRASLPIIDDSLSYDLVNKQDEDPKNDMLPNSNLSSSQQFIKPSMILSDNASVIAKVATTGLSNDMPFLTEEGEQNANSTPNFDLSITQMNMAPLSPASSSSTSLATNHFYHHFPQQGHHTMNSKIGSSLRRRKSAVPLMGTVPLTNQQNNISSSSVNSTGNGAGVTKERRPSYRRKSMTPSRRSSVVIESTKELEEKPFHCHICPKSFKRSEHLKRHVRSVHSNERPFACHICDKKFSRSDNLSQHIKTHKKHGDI", "UniProt O60656, sequence (whole entry, looked up)": "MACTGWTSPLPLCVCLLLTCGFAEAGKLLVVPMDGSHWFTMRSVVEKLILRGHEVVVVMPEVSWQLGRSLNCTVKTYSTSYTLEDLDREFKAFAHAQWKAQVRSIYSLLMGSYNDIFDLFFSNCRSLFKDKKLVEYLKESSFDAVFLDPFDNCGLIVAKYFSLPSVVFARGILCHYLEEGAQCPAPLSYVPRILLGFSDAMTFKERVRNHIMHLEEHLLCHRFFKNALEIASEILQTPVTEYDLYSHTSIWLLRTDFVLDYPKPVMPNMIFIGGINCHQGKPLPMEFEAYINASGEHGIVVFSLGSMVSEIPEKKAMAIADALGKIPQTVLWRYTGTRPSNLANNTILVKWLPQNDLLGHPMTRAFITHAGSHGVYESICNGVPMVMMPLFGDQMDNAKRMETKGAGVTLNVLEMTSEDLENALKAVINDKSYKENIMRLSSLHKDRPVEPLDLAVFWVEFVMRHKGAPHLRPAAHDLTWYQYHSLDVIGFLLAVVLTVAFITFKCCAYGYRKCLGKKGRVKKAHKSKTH", "UniProt O43463, sequence (whole entry, looked up)": "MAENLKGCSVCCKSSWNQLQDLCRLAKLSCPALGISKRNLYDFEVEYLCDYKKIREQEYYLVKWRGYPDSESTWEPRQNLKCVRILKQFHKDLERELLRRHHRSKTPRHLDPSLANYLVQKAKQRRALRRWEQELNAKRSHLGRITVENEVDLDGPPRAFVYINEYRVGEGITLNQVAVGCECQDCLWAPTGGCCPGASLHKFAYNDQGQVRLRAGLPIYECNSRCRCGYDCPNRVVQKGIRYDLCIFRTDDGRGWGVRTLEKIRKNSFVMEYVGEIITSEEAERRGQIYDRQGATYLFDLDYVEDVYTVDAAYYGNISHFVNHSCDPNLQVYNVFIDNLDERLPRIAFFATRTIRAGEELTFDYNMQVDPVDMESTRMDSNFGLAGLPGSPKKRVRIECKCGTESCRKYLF"}
{"Substance": "YFCHQYL", "system": "peptide, human polyclonal IgM RF MCC", "setting": "concentration not given, 5 µg/mL mAb II-481 coated, with: RF at 50% max binding concentration", "endpoint": "inhibition", "value": "14%"}
{"Substance": "GTGCCAAAAATTACATGTTTTGTCTTCTGTTTTTGTTGTTTTAATGTAAATTTTGACCATTTGGTCCACTTTTTTCTGCTCGTTTTTATTTCATGCAATCTTCTTGCTGCGCAAGCG (dsDNA (Escherichia coli))", "target or system": "rutR full length assumed L74A (Escherichia coli, UniProt P0ACU2)", "assay": "EMSA", "system": "double-stranded DNA, one strand shown", "setting": "with: thymine", "endpoint": "binding", "value": "binds"}
{"Substance": "ACAAAGCAAGTGTAACTGTGTAATTATAACATTGGTACACGCACGGGAAAAAACACAGCTAGCAAATTGAAACGT (dsDNA)", "target or system": "MYB52 full length assumed (Arabidopsis thaliana, UniProt Q6R0C4)", "assay": "EMSA", "system": "double-stranded DNA, one strand shown", "endpoint": "binding", "value": "binds"}
{"Substance": "AAEDWCKKGDT", "system": "peptide, human polyclonal IgM RF WEAK", "setting": "concentration not given, 5 µg/mL mAb II-481 coated, with: RF at 50% max binding concentration", "endpoint": "inhibition", "value": "0%"}
{"Substance": "AAATAATCATAAAGTATTAAAGTAATATATAC (dsDNA (Arabidopsis thaliana))", "target or system": "DOF2.1 zinc finger (Arabidopsis thaliana, UniProt Q8LE43)", "assay": "EMSA", "system": "double-stranded DNA, one strand shown", "endpoint": "Kd", "value": "3000 nM"}
{"Substance": "CGCTAGGATCNGGCCCCGCC / GGCGGGGCCGGATCCTAGCG (dsDNA; blunt, tetrahydrofuran abasic site opposite G)", "target or system": "TDG full length assumed (Homo sapiens, UniProt Q13569)", "assay": "EMSA", "setting": "apparent, one-site fit", "endpoint": "Kd", "value": "21 nM"}
{"Substance": "GACTGCTGATGAGTCACTTTAACGTGGAGCAAAGATTAAA (ssDNA)", "target or system": "alkB full length assumed", "assay": "NECEEM", "endpoint": "Kd", "value": "117 ± 10 nM"}
{"Substance": "ATTTATATAATATAAATTAATATTAATATTGCCCCTGATTATTTAATATAATTATAAAGCTAG / GCTTTATAATTATATTAAATAATCAGGGGCAATATTAATATTAATTTATATTATATAAATGCA (dsDNA; 3' overhangs)", "target or system": "MSN2 1-704 (Saccharomyces cerevisiae, UniProt P33748)", "assay": "optical tweezers unzipping", "setting": "pH 8.0, KCl 150 mM", "endpoint": "Kd", "value": "15.8 ± 2.6 nM"}
{"Substance": "AGAAATTGGTACTGTATGAAACGGCAGCTGCACGTCGCG (ssDNA)", "target or system": "alkB full length assumed", "assay": "NECEEM", "endpoint": "Kd", "value": "426 ± 88 nM"}
{"Substance": "UGT1A9 (Homo sapiens, UniProt O60656)", "target or system": "O=C1[C@H](CC[C@H](O)c2ccc(F)cc2)[C@@H](c2ccc(O)cc2)N1c1ccc(F)cc1", "assay": "steady-state kinetics", "setting": "pH 7.4, 37 °C", "endpoint": "Vmax/Km", "value": "0.3 µL/min/mg"}
{"Substance": "UUAGGGUUAGGGUUAGGGUUAGGGUUAGGGUUAGGGUUAGGGUUAGGGUUAGGGUUAGGG (ssRNA)", "target or system": "SUV39H1 N-terminal fragment, chromodomain (Homo sapiens, UniProt O43463)", "assay": "EMSA", "setting": "Mg2+ 2 mM", "endpoint": "Kd", "value": "80 nM"}
{"Substance": "CCGGTCGTACGGAAAACCTGTATTTTCAGGGCTCCGG (dsDNA)", "target or system": "POLG fragment (Homo sapiens)", "assay": "EMSA", "system": "double-stranded DNA, one strand shown", "endpoint": "Kd", "value": "124 nM"}
{"Substance": "CGGTAAACTGCGTCCGAAGGGGCNTGCAGTGANCCCGAATGGGTCCG (XNA; Ds at 24 and 33, four stems, GAAG/GAAT loops)", "target or system": "VEGFA fragment (Homo sapiens)", "assay": "SPR", "endpoint": "Kd", "value": "0.0075 nM"}
{"Substance": "GAGUUGAGUUGAGUUGAGUUGAGUUGAGUUGAGUUGAGUUGAGUUGAGUUGAGUU (ssRNA; single strand)", "target or system": "mtrB full length assumed T30V/K56A (Bacillus subtilis, UniProt P19466)", "assay": "filter binding", "setting": "with: L-tryptophan 1 mM", "endpoint": "Kd", "value": "360 ± 24 nM"}
{"Substance": "GGAGACCACAUCGAUUCAAUCGAAAUGAGAGCCAAGUGGAGAAAGAAGAGAACUAGAAGACUUAAGAGAAAGAGACGGAAGGUGAGAGCCAGAUCCAAAUAAGCGGAUUAUGAGUAAAUAACUCUAAUUUUGUUUUAAAUUCUUUCAAGAGUAUCGUAAUGUCAUUGAUGAAUUAACAUGUUAGUUUCUAUUCUACCUCAUAAUGGAUCUAAAUUGCAUACUAAUCUCACGGUGGGGUGUAAACCAUUGCCUACUAUUUAUAUAGUGCUUUAUAUAUGUCUCACAUAGUUUAAUCAAUUGUCCGUUUUUUUGAAAAAAAAAAAAAAAAAAAAAAAAAAAAAA / ACATGTTAATTCATCAATGAC (DNA/mRNA hybrid (Saccharomyces cerevisiae); 5' m7G cap, DNA oligo annealed mid-mRNA)", "target or system": "eIF4G/eIF4E S502C, Cy5 label (Saccharomyces cerevisiae)", "assay": "single-molecule FRET", "setting": "from koff/kon, upper limit", "endpoint": "Kd", "value": "0.016 ± 0.001 nM"}
{"note": "For quick reference, copied from above:"}
{"Substance": "AAATAATCATAAAGTATTAAAGTAATATATAC (dsDNA (Arabidopsis thaliana))", "target or system": "DOF2.1 zinc finger (Arabidopsis thaliana, UniProt Q8LE43)", "assay": "EMSA", "system": "double-stranded DNA, one strand shown", "endpoint": "Kd", "value": "3000 nM"}
{"Substance": "CCGGTCGTACGGAAAACCTGTATTTTCAGGGCTCCGG (dsDNA)", "target or system": "POLG fragment (Homo sapiens)", "assay": "EMSA", "system": "double-stranded DNA, one strand shown", "endpoint": "Kd", "value": "124 nM"}
